# Experimental data collected from several papers.
# Parts stem from different laboratories: compare values within a part only.

# Block 1
# Molecule: PhoQ, residues 284 288 289 292 302 303 GTAMQF
# Method: Sort-seq
# Refers to: YFP reporter
# Medium: E. coli
# Setting: PhoQ-PhoP variant library
# With: 10 µM Mg2+
# Relative to: high Mg2+ state
# Reading: higher = stronger signaling
target,fold induction
"PhoP, residues 12 14 15 18 19 LHHYF (Escherichia coli, UniProt P23836)",18.8
"PhoP, residues 12 14 15 18 19 TPWTL (Escherichia coli, UniProt P23836)",0.987
"PhoP, residues 12 14 15 18 19 VGHWL (Escherichia coli, UniProt P23836)",1.33

# Block 2
# Target: Histone acetyltransferase KAT6A, both winged helices, GST fusion (KAT6A, Homo sapiens, UniProt Q92794, residues 1-181)
# Method: protein binding microarray
# Form: double-stranded DNA, one strand shown
# Medium: in vitro
# Concentration: not given
# Setting: 8-mer, flanks averaged, mean of 2 arrays, mostly near background
# Relative to: not given
# Reading: higher = stronger binding
# Target sequence (chain): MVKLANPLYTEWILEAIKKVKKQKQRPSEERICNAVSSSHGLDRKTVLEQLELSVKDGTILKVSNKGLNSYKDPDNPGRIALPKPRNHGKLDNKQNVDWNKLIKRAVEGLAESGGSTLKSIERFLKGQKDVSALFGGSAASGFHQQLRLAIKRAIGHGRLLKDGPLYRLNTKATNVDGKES
Oligonucleotide,E-score
AGCGAACA,0.0626
ATACCAAC,-0.0149
CGGTAACC,0.245
CAAAGCAC,-0.108
GAAGAGAA,-0.107
CTTCGAGA,-0.0931
CGTGGAAC,0.182
AACTATGG,-0.139
CCAGTCTC,-0.13
CAGAGGCC,-0.112
ACATGATC,0.0377
GTAGCAGA,-0.146
GCTGGGGA,-0.17
AGCAGAAC,-0.0908
ACAATTAC,-0.122
CGCCTAAA,0.17
CACTATTC,0.011
CGCCGTTC,0.288

# Block 3
# Target: Ras GTPase-activating protein-binding protein 1, C-terminal RGG region (G3BP1, Homo sapiens, UniProt Q13283)
# Sequence of UniProt Q13283 (whole entry, looked up): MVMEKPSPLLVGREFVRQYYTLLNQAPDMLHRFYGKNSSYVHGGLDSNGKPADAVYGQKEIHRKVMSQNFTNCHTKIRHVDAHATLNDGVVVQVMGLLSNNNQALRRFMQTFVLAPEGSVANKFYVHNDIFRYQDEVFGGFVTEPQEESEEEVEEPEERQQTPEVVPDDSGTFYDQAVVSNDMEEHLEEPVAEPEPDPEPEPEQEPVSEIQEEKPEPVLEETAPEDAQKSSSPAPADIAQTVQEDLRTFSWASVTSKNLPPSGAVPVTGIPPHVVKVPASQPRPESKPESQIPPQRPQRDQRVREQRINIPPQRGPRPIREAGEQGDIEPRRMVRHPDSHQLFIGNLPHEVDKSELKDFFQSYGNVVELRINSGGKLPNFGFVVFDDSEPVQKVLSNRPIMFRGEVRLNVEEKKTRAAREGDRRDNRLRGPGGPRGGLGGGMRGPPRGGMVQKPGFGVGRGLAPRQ
# Method: RNA Bind-n-Seq
# Form: RNA
# Medium: in vitro
# Concentration: 1 µM
# Setting: whole 134-nt RNA, ends assumed
# With: 150 mM KCl
# Relative to: input library
# Reading: higher = stronger binding
# Shared flanks, not repeated: GGGAGUUCUACAGUCCGACGAUC … UGGAAUUCUCGGGUGUCAAGG
Oligonucleotide,log2 enrichment
UGGGAGGUGGAUUUUGUUUAUUUUUUUAGCUCAUUUCCAGGGGUGGGAAUUUUUUUUUAAUAUGUGUCAUGAAUAAAGGUGUUUUUGAAA,2.98
CUCAAGUCCUGUGCUACACAUCGUAUGUACCGAAUCGGAGGAAAAAGGAAAGGAAAGUAUUAUGUUACGCCGUUCGGAUCUGCACUUCCA,-1.3
UGGCCCUGGUGGCAUGCGGGGAGGAAGAGGUGCCCUCAUGGAUCGUGGUGGUCCCGGUGGAAUGUUCAGAGGUGGCCGUGGUGGAGACAG,1.6
AUGGACUUGCACAUGAUGAACUGUGAACUUCUAGCCACAUGUAGUGCCCUUGGGUACUUGGAGGGAGACACUUACCAUAAGGAACCAGAU,-1.55
UCAAGUCCUGUGCUACACAUCGUAUGUACCGAAUCGGUUUGGGUUUGGUUUGGGAAAGUAUUAUGUUACGCCGUUCGGAUCUGCACUUCC,-0.96
GUCCUGUGCUACACAUCGUAUGUACCGAAUCGGGCCCCCCGGCCCCCCGGCCCCCCGGAAAGUAUUAUGUUACGCCGUUCGGAUCUGCAC,-0.986
AGUCCUGUGCUACACAUCGUAUGUACCGAAUCGGAAAAAGGGGAAAAAGGAAAAAGGGAAAGUAUUAUGUUACGCCGUUCGGAUCUGCAC,-1.71
CAAGUCCUGUGCUACACAUCGUAUGUACCGAAUCGGAAAAAAAGGAAAGGUUUGGAAAGUAUUAUGUUACGCCGUUCGGAUCUGCACUUC,-2.02
UGGCCCUGGUGGCAUGAGGGGAGGAAGAGGUGGCCUCAUGGAUCGUGGUGGUCCCGGUGGAAUGUUCAGAGGUGGCCGUGGUGGAGACAG,1.99

# Block 4
# Target: Sal-like protein 4, full length isoform A (SALL4, Homo sapiens, UniProt Q9UJQ4, residues 1-1053)
# Sequence of UniProt Q9UJQ4 (whole entry, looked up): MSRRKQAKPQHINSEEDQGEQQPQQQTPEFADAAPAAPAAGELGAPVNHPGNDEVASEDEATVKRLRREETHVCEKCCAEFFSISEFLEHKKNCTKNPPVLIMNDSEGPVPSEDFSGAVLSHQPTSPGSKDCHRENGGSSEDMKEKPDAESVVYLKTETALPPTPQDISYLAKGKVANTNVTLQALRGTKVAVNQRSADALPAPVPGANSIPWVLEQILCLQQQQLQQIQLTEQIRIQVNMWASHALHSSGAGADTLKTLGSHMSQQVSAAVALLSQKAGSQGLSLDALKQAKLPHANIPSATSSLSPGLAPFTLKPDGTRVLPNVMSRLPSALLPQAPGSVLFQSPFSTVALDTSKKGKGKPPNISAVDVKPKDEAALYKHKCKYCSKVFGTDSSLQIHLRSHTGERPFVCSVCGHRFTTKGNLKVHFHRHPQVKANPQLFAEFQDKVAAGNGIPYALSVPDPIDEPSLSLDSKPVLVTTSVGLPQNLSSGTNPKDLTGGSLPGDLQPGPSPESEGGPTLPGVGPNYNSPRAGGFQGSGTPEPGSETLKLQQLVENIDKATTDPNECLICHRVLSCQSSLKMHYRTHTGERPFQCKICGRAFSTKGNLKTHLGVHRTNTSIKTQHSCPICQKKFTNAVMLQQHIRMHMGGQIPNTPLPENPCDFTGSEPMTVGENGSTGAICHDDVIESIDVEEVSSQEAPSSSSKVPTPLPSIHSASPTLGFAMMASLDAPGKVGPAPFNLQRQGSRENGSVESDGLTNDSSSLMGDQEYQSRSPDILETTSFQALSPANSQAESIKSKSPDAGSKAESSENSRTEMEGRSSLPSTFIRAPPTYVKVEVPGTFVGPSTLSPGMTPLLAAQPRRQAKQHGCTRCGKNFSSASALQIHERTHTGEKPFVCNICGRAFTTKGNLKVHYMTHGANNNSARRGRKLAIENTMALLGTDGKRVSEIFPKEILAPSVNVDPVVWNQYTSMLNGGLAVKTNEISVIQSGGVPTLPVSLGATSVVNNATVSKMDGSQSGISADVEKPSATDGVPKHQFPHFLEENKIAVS
# Method: universal PBM
# Form: double-stranded DNA, one strand shown
# Medium: in vitro
# Concentration: 600 nM
# Setting: 8-mer, flanks averaged, mean of replicates
# Reading: higher = stronger binding
Oligonucleotide,E-score
ATGCAACG,-0.00894
AGAATGCA,0.108
AGAGATCT,0.0177
AATAAGTC,0.275
GCACAAGC,-0.0457
CAGCATAC,0.0516
GAAACTGA,-0.048
GCCTTCAA,-0.00247
CGCTGGAC,-0.3
AGCTATGA,0.181
CCCGGCGA,-0.399
AAATGACC,0.0218
CGACCACG,-0.235
AACTTCGA,0.0741
CCAGCATC,-0.303
AAAAGCCC,-0.0704
ACGGTAGG,-0.13
AATTTCAC,0.26
AGTTTACC,0.0646
GCTCTGAC,-0.173
AACTTCGG,0.0153
CGTAAAAG,0.155
CCTTACTA,0.129
CGTGTTCC,-0.161
CTCACACA,-0.0311

# A few entries again (block 2):
Oligonucleotide,E-score
CTTCGAGA,-0.0931
CGTGGAAC,0.182
AACTATGG,-0.139
CCAGTCTC,-0.13
